Assay results gathered from unrelated publications.
Every numbered part comes from another study and shows a few of its results, in no order. Positions count from the first letter of the parent shown.

Set 1 — method: DHFR PCA, deep sequencing; sample: yeast; added: (+)-ABA 0 µM; baseline: wild-type fitted maximum; reading: higher = stronger binding; endpoint: relative binding score
Target: ABI1, truncated, D143A, DHFR fusion (Arabidopsis thaliana)
Notes: methotrexate growth selection, single substitutions
Starting sequence: PYL1, truncated, DHFR fusion (Arabidopsis thaliana); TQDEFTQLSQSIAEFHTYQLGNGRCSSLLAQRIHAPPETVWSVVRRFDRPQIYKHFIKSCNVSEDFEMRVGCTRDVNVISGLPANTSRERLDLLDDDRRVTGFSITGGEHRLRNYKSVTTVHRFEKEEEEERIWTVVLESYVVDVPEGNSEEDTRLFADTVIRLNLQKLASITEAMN
F56M: 2.99%
D65W: -0.0577%
E125K: 20.5%
D75M: 22.5%
F5W: 34.4%
S63E: 17.5%
V121M: 3.53%
V43D: 2.98%
V78A: 9.52%
L166D: 3.54%
Y141V: -1.25%
S27M: -0.938%
K126P: 40%
S87H: 50.2%
N61Q: 41.7%
D65P: 48%
T1K: 20%
N165E: 8.13%
L29W: 0.208%
V118Y: 2.82%
F47N: -4.09%
I12Y: -3.15%
N85M: 60.4%

Set 2 — method: universal PBM; molecule type: double-stranded DNA, one strand shown; sample: in vitro; tested at: not given; reading: higher = stronger binding; endpoint: E-score
Target: Sal-like protein 4, full length isoform B (SALL4, Homo sapiens, UniProt Q9UJQ4-2, residues 1-616)
Notes: 8-mer, flanks averaged, mean of replicates
ATCTACAA: 0.259
ATAGCTAG: 0.0398
AGCTGACG: -0.085
AGTGGCTA: -0.0561
ACTCCAGC: -0.213
GCCTACGA: -0.00793
AGTAATAG: 0.255
GATTGCAC: 0.137
CATACTCC: 0.107
CCTAATGC: -0.0873
AGGTTTAC: 0.0149
GAGTATTA: 0.289
GCAATACC: 0.0229
AAACATAG: 0.191
GAGGTAAC: -0.0462
ACCCTCAA: 0.0926
CAGTCCCC: -0.333
GCAGTTCC: -0.25
CTGGTAGA: -0.102
CAGGCTAC: -0.196
AGTCAGTA: 0.0953
ATGCCTAC: -0.0299
AGCGATCA: -0.167
GCTCCGCC: -0.329
GTTATCTA: 0.196

Set 3 — target: CCNB1, cyclin fold, Cln2 fusion (human); method: yeast growth competition, sequencing; sample: yeast; notes: strong parent motif; baseline: not given; reading: higher = stronger binding; endpoint: normalised enrichment score
Starting sequence: RBL2 docking peptide (human); STTRRRLFVENDS
STTRRRVFVENDS [L7V]: 0.686
STTRRRFFVENDS [L7F]: 0.675
STTRRRLFVEKDS [N11K]: 1.25
TTTRRRLFVENDS [S1T]: 0.798
SPTRRRLFVENDS [T2P]: 0.948
PTTRRRLFVENDS [S1P]: 1.22
STTWRRLFVENDS [R4W]: -0.511
STTRRRLFVMNDS [E10M]: 1.24
STTRRSLFVENDS [R6S]: 0.915
STTRRRLFVEADS [N11A]: 0.619
STTRRRLFLENDS [V9L]: 0.748
NTTRRRLFVENDS [S1N]: 0.36
STTRRRLFVENWS [D12W]: 0.983
STTRRRLFVEMDS [N11M]: 1.11
STTRRRLFVRNDS [E10R]: 0.367
STTRRRLFVENDY [S13Y]: 1.22
STTRDRLFVENDS [R5D]: 0.0635
SATRRRLFVENDS [T2A]: 0.889
STTRRYLFVENDS [R6Y]: 0.131
ITTRRRLFVENDS [S1I]: 0.448
STTRRMLFVENDS [R6M]: 0.822
STPRRRLFVENDS [T3P]: 1.01
STTRRRPFVENDS [L7P]: 0.455
STTRRRLFVINDS [E10I]: 0.738

Set 4 — method: RNA Bind-n-Seq; molecule type: RNA; sample: in vitro; tested at: 365 nM; baseline: no-protein control; reading: higher = stronger binding; endpoint: RBNS enrichment (R)
Target: RNA binding protein fox-1 homolog 2, RRM domain, GST-SBP tag (RBFOX2, Homo sapiens, UniProt O43251-10, residues 100-194)
Notes: natural RNA segment, single round, ends assumed
Constant ends, left off below: GGGAGUUCUACAGUCCGACGAUC … UGGAAUUCUCGGGUGCCAA
Construct (chain): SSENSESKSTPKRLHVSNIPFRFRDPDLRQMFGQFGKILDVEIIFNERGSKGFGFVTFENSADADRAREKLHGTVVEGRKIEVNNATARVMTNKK
GCUUUUUUUCUAGUUUUAUGGACUUGGUUACUGUAAUAAUGUCUUGUUUUUAGCCAUGUAACUACAAACAGAUAUUCUCUUGAUGUCUUAGUAAAUUUGCAUUUGAUAUA: 1.63
GGCAAGUAGCAGCCUGAGGAAGAUGCUGGCUUGUCUGUACCGUCACGUCUGCAGCAGAGGCCCAGUAGCACCGAAUGGUGUCCAAUAAGCUCUGAGCAGUGGCAAUAGAA: 0.319
UUUCUUCCUUUUAGAAAAACUGUACAUUUGAUCUCUCAAUUCUGUUUGCAAAGCAGUGCAGAAAACUAUAAUCAAAUGUGACAUGUCUAUAAAAUAAUUUUGACAUAACA: 0.4
GACACCUUAGCUUCUUAUGAGGAACUUGAGUUCCCUCCGCCUUGGACAGGGCUGCAGGGCCACGCUGGUGGGAAAGACAAGAGCUGUGAAGGGCCUGGUCCCUCUCUAGA: 0.557
AUGGAUAUAGGCUAUUCUCUGGGAUGAGUGUCAUUUCAAUGCUUUAUAAAUCCAUGAAGCUGCUUGUCUCAUAAAGUAGAACUGAUACAAAUUUUGGUUGGAUAUAUAGA: 0.905
UUAGGAAGGACCUUCAGUGCAGAUCAGGUGCAGUAAUGGCUUUCUUGUCCCUUAAUUAUUCACCAGACCCAGAAGUUGUACGCAUUUAAUGCUGUUUGUAACCAUGCAUC: 0.48
CCAUGGUGAUACAGCUCUGUGUGAUUCAAGUUCUGGCAGAGCUUGUAAGGCUAGAGCCCAGGUCUGCCGACACCCUGUGCUUGUUGCACACUUGAUUUGCUAAGGCUGGA: 0.502
UUCCAAUGCCUGGAGGGCCUCCACUUUGUGGCCAGCCUGUGGUGGUGGCUCUGAGGCCUAGGCAACGAGCGACAGGGCUGCCAGUUGCCCCUGGGUUCCUUUGUGCUGCU: 0.603

Set 5 — target: DDIT3, bZIP domain (human); method: DHFR protein complementation; sample: yeast; baseline: wild-type JUN-FOS pair; reading: higher = stronger binding; endpoint: binding fitness
Notes: single substitutions, most at no-binding floor
Starting sequence: JUN, bZIP domain (human); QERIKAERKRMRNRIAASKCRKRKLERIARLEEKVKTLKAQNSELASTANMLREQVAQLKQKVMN; partner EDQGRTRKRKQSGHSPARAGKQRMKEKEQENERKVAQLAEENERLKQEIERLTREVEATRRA
E44C: -0.0931 natural log
K34V: -0.0352 natural log
A46D: -0.658 natural log
K34G: -0.843 natural log
I28G: -7.59e-05 natural log
K39L: 0.0324 natural log
N42P: -1.23 natural log
T48F: -0.078 natural log
A46C: -0.117 natural log
Q55L: 0.0484 natural log
R53Y: -0.774 natural log

Other studies, line by line
PhoQ, residues 284 288 289 292 302 303 TTSMTC  fold induction (PhoP, residues 12 14 15 18 19 SEGLL (Escherichia coli, UniProt P23836); Sort-seq, measured: YFP reporter; E. coli; PhoQ-PhoP variant library, added: 10 µM Mg2+; baseline: high Mg2+ state, higher = stronger signaling): 19.7

A few entries again (set 3):
NTTRRRLFVENDS [S1N]: 0.36
STTRRRLFVMNDS [E10M]: 1.24
STTRRRLFVEADS [N11A]: 0.619
STTRRRLFLENDS [V9L]: 0.748
STTRRSLFVENDS [R6S]: 0.915
STTRRMLFVENDS [R6M]: 0.822
STTRDRLFVENDS [R5D]: 0.0635
STTRRRFFVENDS [L7F]: 0.675
